Measurements of several laboratories.
A part holds a random share of what one study measured. Substitutions count along the parent as printed.
UniProt Q9C5X0, sequence (whole entry, looked up): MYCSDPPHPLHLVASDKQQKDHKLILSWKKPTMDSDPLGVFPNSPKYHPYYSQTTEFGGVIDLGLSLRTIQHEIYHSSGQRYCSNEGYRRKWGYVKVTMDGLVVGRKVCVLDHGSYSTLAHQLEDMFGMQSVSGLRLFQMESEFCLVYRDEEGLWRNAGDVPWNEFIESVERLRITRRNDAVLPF
UniProt Q8H174, sequence (whole entry, looked up): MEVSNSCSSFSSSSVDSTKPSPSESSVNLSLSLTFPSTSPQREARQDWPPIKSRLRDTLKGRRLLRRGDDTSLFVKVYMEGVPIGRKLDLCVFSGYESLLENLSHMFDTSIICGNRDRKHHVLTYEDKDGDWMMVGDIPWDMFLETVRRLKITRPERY
UniProt Q94JM3, sequence (whole entry, looked up): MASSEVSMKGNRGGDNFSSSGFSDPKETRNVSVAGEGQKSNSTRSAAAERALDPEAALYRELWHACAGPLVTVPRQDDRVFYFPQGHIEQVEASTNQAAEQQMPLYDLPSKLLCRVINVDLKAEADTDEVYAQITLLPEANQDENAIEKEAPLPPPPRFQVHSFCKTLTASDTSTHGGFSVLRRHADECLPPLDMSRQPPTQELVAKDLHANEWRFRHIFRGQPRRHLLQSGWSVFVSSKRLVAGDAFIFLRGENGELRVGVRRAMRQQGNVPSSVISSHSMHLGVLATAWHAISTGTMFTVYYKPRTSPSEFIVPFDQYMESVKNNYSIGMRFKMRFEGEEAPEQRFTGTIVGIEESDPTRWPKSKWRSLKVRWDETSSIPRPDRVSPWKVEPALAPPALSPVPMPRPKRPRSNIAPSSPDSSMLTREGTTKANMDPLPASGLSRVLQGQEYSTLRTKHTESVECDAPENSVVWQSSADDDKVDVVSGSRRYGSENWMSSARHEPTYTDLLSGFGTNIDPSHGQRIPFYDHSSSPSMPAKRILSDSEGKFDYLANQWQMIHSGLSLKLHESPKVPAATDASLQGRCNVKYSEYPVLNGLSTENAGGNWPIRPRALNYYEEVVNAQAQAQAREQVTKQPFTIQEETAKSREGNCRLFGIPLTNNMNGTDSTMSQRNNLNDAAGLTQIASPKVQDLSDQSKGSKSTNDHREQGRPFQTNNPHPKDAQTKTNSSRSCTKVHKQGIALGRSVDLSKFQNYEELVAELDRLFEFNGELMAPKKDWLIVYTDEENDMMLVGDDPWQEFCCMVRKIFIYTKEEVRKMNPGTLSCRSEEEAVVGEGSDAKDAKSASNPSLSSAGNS
UniProt P93024, sequence (whole entry, looked up): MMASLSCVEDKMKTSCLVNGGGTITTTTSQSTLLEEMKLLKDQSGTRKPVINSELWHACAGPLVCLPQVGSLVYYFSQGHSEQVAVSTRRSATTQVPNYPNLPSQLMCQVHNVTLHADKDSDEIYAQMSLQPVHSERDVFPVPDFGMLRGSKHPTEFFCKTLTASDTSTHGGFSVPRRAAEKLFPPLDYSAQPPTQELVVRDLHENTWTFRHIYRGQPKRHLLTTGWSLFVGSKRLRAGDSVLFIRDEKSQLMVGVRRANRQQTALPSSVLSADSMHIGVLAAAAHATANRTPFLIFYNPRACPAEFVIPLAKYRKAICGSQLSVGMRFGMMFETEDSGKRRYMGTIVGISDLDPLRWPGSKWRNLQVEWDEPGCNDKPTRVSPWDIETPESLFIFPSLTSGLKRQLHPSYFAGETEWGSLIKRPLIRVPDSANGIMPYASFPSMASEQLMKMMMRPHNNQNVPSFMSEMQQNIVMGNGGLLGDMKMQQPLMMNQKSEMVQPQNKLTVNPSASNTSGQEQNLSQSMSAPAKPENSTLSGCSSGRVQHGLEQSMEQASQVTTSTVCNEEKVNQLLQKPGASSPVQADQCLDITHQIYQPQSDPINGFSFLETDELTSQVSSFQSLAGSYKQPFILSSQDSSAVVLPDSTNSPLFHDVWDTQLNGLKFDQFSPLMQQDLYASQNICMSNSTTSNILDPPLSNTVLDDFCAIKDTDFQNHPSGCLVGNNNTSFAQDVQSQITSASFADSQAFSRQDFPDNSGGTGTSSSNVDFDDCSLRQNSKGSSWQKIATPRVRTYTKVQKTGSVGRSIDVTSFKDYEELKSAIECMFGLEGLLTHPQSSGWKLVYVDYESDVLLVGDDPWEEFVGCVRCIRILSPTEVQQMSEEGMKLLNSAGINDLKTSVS
UniProt O23661, sequence (whole entry, looked up): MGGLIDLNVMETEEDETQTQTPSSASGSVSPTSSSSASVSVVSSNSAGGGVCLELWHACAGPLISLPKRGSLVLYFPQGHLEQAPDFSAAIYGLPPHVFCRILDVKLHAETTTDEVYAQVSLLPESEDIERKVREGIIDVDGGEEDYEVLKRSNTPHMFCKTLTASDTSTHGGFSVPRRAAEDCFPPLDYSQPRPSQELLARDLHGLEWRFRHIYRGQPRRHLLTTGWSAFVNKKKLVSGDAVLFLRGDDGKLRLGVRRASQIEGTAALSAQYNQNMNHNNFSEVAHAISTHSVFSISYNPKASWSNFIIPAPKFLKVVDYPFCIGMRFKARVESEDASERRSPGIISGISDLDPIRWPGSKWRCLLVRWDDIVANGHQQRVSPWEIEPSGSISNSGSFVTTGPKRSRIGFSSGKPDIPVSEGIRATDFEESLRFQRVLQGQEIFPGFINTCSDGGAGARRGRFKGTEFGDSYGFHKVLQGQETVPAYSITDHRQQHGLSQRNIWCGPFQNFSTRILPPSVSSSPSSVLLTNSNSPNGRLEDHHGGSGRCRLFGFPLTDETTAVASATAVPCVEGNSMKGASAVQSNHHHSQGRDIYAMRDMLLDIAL
UniProt Q84WU6, sequence (whole entry, looked up): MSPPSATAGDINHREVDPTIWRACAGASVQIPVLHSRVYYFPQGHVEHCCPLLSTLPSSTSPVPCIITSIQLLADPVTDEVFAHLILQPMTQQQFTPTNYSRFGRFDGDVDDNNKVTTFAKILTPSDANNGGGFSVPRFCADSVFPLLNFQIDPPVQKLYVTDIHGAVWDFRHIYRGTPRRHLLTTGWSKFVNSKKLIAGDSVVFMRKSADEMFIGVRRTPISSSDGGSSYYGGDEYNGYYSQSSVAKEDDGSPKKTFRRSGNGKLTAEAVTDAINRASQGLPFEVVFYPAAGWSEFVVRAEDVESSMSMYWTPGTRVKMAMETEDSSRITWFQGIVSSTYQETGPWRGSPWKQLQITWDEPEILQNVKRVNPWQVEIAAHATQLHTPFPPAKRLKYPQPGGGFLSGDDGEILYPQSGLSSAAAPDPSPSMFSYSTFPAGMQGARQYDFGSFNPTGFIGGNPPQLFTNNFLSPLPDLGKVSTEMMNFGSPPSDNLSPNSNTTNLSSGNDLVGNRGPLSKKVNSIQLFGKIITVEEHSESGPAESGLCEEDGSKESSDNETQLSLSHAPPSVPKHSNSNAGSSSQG
UniProt Q9FGV1, sequence (whole entry, looked up): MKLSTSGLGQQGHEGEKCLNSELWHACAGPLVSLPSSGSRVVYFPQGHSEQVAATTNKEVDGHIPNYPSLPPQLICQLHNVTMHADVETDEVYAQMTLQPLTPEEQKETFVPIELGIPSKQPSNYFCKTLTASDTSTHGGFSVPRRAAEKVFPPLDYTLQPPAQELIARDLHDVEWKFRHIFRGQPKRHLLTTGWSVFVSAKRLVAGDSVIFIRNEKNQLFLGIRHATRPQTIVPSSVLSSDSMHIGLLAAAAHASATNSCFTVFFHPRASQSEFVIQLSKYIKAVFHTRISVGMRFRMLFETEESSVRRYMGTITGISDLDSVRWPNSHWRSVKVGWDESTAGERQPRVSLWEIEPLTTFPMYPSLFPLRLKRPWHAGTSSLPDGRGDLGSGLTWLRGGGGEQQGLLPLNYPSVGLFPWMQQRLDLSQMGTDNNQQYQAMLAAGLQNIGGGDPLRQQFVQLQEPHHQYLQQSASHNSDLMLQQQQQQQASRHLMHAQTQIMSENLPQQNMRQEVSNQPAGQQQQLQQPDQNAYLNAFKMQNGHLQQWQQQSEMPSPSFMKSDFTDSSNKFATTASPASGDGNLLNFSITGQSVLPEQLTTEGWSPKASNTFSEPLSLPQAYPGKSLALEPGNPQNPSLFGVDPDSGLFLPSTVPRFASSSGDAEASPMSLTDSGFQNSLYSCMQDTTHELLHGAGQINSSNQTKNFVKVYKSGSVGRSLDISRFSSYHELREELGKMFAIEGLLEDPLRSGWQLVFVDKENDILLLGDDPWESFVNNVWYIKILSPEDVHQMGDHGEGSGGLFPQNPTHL
UniProt Q9XED8, sequence (whole entry, looked up): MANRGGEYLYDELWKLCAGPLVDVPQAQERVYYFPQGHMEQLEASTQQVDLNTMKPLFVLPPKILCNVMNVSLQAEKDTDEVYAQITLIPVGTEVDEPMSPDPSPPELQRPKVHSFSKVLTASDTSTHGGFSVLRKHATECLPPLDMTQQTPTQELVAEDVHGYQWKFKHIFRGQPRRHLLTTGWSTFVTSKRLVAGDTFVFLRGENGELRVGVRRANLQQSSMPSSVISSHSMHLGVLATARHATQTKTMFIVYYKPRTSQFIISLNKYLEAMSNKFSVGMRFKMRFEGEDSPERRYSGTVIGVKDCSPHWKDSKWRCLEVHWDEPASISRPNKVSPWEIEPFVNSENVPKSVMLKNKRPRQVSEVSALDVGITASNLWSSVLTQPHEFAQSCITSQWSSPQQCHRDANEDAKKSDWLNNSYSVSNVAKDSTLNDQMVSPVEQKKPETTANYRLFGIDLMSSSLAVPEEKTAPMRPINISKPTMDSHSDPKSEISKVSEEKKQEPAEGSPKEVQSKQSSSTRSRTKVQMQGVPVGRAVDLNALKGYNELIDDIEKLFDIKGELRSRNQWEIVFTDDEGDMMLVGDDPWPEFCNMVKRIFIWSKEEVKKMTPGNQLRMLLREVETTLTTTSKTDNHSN

Study 1
Target: CCND2, cyclin fold, Cln2 fusion (human)
Technique: yeast growth competition, sequencing
Medium: yeast
Setting: weak parent motif
Reference: not given
Direction: higher = stronger binding
Endpoint: normalised enrichment score
Parent: RBL1 docking peptide (human); GSAKRRLFGEDPP; partner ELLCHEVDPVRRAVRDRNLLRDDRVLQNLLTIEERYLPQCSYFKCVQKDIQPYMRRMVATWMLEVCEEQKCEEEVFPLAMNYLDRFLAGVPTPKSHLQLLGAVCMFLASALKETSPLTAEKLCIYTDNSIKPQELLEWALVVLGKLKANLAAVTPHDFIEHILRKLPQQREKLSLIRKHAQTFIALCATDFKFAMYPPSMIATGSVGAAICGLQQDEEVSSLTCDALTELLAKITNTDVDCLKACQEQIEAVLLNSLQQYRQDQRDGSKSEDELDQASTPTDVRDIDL
Substitution = D11T; result = 0.302
Substitution = R5C; result = 0.148
Substitution = G1Y; result = 1.18
Substitution = P12M; result = 0.116
Substitution = P13M; result = 0.0416
Substitution = P12W; result = 0.175
Substitution = P13K; result = -0.353
Substitution = G1H; result = 0.332
Substitution = P12E; result = 0.712
Substitution = G9L; result = 0.213
Substitution = K4W; result = 0.00987
Substitution = K4V; result = 0.405
Substitution = P13A; result = 0.105
Substitution = G9A; result = 0.595
Substitution = L7Q; result = 0.489
Substitution = A3K; result = 0.14
Substitution = L7D; result = -0.154
Substitution = E10H; result = 0.606
Substitution = F8K; result = 0.547
Substitution = F8L; result = 0.284
Substitution = R5K; result = -0.0978
Substitution = D11N; result = 0.348
Substitution = P13N; result = 0.268
Substitution = P13E; result = -0.217
Substitution = A3N; result = 0.0333

Study 2
Target: Interferon regulatory factor 5, full length, phosphomimetic (IRF5, Homo sapiens, UniProt Q13568-2, residues 1-514, S451D/S453D/S456D/S462D)
Technique: protein-binding microarray
Molecule type: double-stranded DNA, one strand shown
Medium: in vitro
Tested at: 940 nM top
Setting: 60-bp whole probe
Added: salmon DNA 0.4 mg/ml
Reference: random background probes
Direction: higher = stronger binding
Endpoint: fitted relative affinity
All sequences stand within: GCCTAGCAC … GTCTTGATTCGCTTGACGCTGCTG
Strand = ATTTTGAGGTGGAGAGATAAGTGCTAG; result = -0.101 z-score
Strand = AGGAAAGTGTTTCTCAACCAGTGCTAG; result = -0.0105 z-score
Strand = CACGGACTGCTACTGCTGACGTGCTAG; result = -0.594 z-score
Strand = TTAGGTCTCATACTGCTTTAGTGCTAG; result = 0.846 z-score
Strand = TTAGGACTGGGTATCGGTTCGTGCTAG; result = 2.77 z-score
Strand = ATGCTGGTCACTCTCTGGGCGTGCTAG; result = -0.455 z-score
Strand = TTAGGTTTCGACTTTCGGTGAGTGCTA; result = 8.53 z-score
Strand = ATCCTTGTCCCTCCGGGAGCGTGCTAG; result = -0.239 z-score
Strand = TCAGGAGTGTTTCTCAGACTGTGCTAG; result = -0.199 z-score
Strand = TCAATTATTGTTTCCTTACTGTGCTAG; result = 1.05 z-score
Strand = GACGATATCAGTCTCGCGACGTGCTAG; result = -0.199 z-score
Strand = TCACTTATTAAGATTGTGACTGTGCTA; result = 0.14 z-score
Strand = GACGGACGGGGTATCGGGACGTGCTAG; result = 0.746 z-score
Strand = GACGATCTCAGTCTCGAGAAGTGCTAG; result = 1.14 z-score
Strand = TTAGAACTGGGGTTTCGCTTAGTGCTA; result = 2.74 z-score
Strand = TTAGGAATCGACACTGGGTTAGTGCTA; result = 0.318 z-score
Strand = GACGGACTGGACACTCGGGACGTGCTA; result = -0.311 z-score
Strand = GACGATATCTGGTTTCGAGACGTGCTA; result = 3.35 z-score

Study 3
Molecule: B1 (IAA28)
Technique: two-hybrid
Direction: higher = firmer interaction
Endpoint: positive tests
B1: IAA28 (Arabidopsis thaliana, UniProt Q9XFM0); chain MEEEKRLELRLAPPCHQFTSNNNINGSKQKSSTKETSFLSNNRVEVAPVVGWPPVRSSRRNLTAQLKEEMKKKESDEEKELYVKINMEGVPIGRKVNLSAYNNYQQLSHAVDQLFSKKDSWDLNRQYTLVYEDTEGDKVLVGDVPWEMFVSTVKRLHVLKTSHAFSLSPRKHGKE
partner = ARF2 727-859 (Arabidopsis thaliana, UniProt Q94JM3); how to read = reference: out of 4 tests; result = 0
partner = IAA31 (Arabidopsis thaliana, UniProt Q8H174); how to read = reference: out of 2 tests; result = 2
partner = ETT (Arabidopsis thaliana, UniProt O23661); how to read = reference: out of 4 tests; result = 0
partner = ARF9 519-638 (Arabidopsis thaliana, UniProt Q9XED8); setting = weak activation fusion; how to read = reference: out of 4 tests; result = 2
partner = IAA34 (Arabidopsis thaliana, UniProt Q9C5X0); how to read = reference: out of 4 tests; result = 3
partner = ARF5 788-902 (Arabidopsis thaliana, UniProt P93024); how to read = reference: out of 4 tests; result = 4
partner = ARF8 699-811 (Arabidopsis thaliana, UniProt Q9FGV1); how to read = reference: out of 4 tests; result = 4
partner = ARF17 (Arabidopsis thaliana, UniProt Q84WU6); setting = weak activation fusion; how to read = reference: out of 3 tests; result = 0

Study 4
Target: CREB3, bZIP domain (human)
Technique: DHFR protein complementation
Medium: yeast
Setting: single substitutions, most at no-binding floor
Reference: wild-type JUN-FOS pair
Direction: higher = stronger binding
Endpoint: binding fitness
Parent: JUN, bZIP domain (human); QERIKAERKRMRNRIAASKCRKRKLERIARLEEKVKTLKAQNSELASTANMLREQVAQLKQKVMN; partner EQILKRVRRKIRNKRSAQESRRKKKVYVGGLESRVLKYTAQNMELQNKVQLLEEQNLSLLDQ
Substitution = N42P; result = -1.51 natural log
Substitution = A57N; result = -1.64 natural log
Substitution = A57L; result = -1.38 natural log
Substitution = L52G; result = -1.5 natural log
Substitution = R30V; result = -1.38 natural log
Substitution = L38Q; result = -1.46 natural log
Substitution = A29D; result = -1.18 natural log
Substitution = L45G; result = -1.5 natural log
Substitution = N42V; result = -1.44 natural log
Substitution = S43L; result = -1.4 natural log
Substitution = V56G; result = -1.47 natural log
Substitution = S47C; result = -1.49 natural log
Substitution = I28A; result = -1.47 natural log
Substitution = E54Q; result = -1.4 natural log
Substitution = T48M; result = -1.27 natural log
Substitution = A40T; result = -1.23 natural log
Substitution = K36A; result = -1.38 natural log
Substitution = A57P; result = -1.51 natural log
Substitution = A57H; result = -1.45 natural log
Substitution = S43V; result = -1.43 natural log
Substitution = V35A; result = -1.49 natural log
Substitution = A57R; result = -1.23 natural log
Substitution = V35E; result = -1.41 natural log
Substitution = R30N; result = -1.48 natural log
Substitution = T37M; result = -1.47 natural log

Study 5
Target: ABI1, truncated, D143A, DHFR fusion (Arabidopsis thaliana)
Technique: DHFR PCA, deep sequencing
Medium: yeast
Setting: methotrexate growth selection, single substitutions
Added: (+)-ABA 0.0091 µM
Reference: wild-type fitted maximum
Direction: higher = stronger binding
Endpoint: relative binding score
Parent: PYL1, truncated, DHFR fusion (Arabidopsis thaliana); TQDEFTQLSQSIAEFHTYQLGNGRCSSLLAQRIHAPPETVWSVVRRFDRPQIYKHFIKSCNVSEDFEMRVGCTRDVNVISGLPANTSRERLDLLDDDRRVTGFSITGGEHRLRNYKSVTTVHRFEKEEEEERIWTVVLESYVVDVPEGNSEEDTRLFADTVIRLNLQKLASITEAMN
Substitution = D159W; result = -0.223%
Substitution = L138R; result = 4.45%
Substitution = R123D; result = 2.74%
Substitution = I133R; result = 10.8%
Substitution = R163L; result = -1.22%
Substitution = I12N; result = -4.69%
Substitution = H16E; result = -1.64%
Substitution = V143E; result = -0.0326%
Substitution = L20V; result = 60.4%
Substitution = V40M; result = -3.26%
Substitution = S26L; result = 4.91%
Substitution = L20T; result = 56.5%
Substitution = F124N; result = -1.38%
Substitution = E129K; result = 16.1%
Substitution = F5R; result = 7.6%
Substitution = T17H; result = -3.6%
Substitution = V62Q; result = -7.06%
Substitution = W134M; result = 27.6%
Substitution = G23C; result = 2.12%
Substitution = K58C; result = 3.02%
Substitution = Y18W; result = 19.8%
Substitution = A84F; result = 93.9%
Substitution = S80G; result = 11.5%
Substitution = D153H; result = 3.67%
Substitution = G81P; result = 35.7%

A few entries again (study 1):
Substitution = R5C; result = 0.148
Substitution = G1H; result = 0.332
Substitution = G9A; result = 0.595
Substitution = P12W; result = 0.175
Substitution = K4W; result = 0.00987
Substitution = E10H; result = 0.606
Substitution = F8K; result = 0.547
Substitution = P13A; result = 0.105
Substitution = P12E; result = 0.712
Substitution = L7D; result = -0.154
Substitution = P12M; result = 0.116
Substitution = F8L; result = 0.284
Substitution = D11N; result = 0.348
Substitution = P13K; result = -0.353
